{"data": "Published values gathered from unrelated publications", "note": "Every numbered part comes from another study and shows a few of its results, in no order.", "UniProt Q08345, sequence (whole entry, looked up)": "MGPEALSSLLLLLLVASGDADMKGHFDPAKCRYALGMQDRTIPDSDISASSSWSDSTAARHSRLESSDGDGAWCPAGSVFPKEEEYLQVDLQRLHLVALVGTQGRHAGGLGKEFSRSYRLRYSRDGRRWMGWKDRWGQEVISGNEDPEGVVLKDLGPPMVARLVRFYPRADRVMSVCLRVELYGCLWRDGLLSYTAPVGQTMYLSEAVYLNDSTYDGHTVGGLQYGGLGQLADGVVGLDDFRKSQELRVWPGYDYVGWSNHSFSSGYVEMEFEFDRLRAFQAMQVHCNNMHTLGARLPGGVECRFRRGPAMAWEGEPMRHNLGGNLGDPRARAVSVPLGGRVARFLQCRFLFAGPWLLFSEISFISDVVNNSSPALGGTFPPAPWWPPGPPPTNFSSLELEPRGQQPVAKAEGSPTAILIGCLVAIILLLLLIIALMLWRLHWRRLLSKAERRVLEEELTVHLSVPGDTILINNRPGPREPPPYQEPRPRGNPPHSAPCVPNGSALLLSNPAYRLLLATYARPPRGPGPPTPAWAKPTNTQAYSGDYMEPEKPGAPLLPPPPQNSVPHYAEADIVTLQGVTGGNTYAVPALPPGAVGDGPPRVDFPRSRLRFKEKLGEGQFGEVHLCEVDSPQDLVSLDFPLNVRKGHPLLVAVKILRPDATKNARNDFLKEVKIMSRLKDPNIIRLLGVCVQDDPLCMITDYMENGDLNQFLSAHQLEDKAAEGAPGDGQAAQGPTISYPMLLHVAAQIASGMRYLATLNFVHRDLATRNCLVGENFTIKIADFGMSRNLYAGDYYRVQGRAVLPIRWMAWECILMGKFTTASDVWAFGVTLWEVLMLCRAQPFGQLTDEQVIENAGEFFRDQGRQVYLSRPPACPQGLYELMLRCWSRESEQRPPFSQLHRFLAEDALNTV", "UniProt Q9Y5S2, sequence (whole entry, looked up)": "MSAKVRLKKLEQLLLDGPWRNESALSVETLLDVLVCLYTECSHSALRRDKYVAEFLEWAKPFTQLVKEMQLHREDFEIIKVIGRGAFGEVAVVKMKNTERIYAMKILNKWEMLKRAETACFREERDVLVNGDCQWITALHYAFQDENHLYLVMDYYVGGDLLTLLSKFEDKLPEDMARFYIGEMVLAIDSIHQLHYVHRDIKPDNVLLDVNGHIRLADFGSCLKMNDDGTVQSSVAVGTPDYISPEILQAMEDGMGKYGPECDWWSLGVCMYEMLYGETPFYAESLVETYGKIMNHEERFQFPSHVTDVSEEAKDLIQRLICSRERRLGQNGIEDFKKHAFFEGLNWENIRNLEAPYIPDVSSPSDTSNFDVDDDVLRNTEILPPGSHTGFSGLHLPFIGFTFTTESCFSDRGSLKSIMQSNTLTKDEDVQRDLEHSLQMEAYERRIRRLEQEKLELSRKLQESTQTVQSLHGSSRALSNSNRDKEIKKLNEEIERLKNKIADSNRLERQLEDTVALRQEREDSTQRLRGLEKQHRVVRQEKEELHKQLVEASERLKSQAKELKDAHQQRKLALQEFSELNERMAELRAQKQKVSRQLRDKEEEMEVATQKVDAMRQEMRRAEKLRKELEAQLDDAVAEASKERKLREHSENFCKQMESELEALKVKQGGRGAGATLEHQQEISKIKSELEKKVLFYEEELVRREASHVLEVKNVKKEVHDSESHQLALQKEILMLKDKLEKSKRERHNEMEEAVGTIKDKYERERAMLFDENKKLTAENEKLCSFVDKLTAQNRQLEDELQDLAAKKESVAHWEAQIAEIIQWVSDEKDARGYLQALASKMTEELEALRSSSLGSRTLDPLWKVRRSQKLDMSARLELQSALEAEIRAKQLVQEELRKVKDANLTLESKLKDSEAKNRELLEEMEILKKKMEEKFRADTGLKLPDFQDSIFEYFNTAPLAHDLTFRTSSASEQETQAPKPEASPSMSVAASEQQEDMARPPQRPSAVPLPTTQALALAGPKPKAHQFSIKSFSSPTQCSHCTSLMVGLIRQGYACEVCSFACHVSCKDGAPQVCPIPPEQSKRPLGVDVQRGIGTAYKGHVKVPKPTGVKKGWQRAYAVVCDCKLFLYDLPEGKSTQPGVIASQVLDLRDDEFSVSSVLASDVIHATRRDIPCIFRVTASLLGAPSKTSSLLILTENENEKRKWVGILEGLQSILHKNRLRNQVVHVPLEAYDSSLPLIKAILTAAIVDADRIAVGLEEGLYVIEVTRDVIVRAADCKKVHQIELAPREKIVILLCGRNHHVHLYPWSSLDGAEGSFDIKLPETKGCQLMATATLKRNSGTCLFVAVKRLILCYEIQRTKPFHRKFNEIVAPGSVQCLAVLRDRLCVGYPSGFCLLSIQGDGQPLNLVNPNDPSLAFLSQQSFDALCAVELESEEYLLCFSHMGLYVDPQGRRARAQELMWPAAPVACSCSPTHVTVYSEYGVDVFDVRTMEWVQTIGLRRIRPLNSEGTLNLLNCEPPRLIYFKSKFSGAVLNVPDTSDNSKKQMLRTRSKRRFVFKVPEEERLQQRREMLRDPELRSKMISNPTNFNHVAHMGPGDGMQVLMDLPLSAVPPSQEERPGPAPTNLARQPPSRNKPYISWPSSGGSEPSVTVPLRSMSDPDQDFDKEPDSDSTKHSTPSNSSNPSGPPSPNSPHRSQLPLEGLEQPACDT", "UniProt Q6ZWH5, sequence (whole entry, looked up)": "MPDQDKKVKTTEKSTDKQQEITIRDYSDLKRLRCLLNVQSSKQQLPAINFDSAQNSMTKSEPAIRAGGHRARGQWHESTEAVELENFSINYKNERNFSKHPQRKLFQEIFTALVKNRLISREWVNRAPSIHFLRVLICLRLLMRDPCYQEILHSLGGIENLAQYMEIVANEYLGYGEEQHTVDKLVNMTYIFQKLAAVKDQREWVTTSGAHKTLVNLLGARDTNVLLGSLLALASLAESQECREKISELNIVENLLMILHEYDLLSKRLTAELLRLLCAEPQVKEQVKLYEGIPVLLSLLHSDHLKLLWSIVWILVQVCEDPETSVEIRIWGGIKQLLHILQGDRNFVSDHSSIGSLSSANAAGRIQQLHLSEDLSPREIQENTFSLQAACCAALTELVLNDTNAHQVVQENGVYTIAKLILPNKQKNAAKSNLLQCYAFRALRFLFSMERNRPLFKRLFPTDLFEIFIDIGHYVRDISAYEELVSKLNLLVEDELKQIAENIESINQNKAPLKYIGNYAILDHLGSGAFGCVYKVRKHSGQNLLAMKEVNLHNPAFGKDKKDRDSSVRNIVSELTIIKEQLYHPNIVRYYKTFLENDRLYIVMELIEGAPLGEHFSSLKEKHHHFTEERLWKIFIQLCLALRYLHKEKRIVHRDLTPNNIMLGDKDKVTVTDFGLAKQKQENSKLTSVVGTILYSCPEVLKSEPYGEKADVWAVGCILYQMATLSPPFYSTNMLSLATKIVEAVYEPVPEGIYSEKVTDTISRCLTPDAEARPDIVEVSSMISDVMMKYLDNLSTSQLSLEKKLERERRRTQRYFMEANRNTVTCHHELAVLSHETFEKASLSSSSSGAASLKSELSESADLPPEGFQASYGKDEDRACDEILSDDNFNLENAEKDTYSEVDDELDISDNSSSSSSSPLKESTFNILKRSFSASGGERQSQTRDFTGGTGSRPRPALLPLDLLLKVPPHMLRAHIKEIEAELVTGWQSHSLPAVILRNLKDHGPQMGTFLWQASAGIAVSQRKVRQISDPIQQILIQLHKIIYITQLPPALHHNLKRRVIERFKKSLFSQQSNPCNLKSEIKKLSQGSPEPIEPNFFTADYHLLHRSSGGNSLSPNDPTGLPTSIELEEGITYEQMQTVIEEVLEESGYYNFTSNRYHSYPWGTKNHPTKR", "UniProt Q9Y4K4, sequence (whole entry, looked up)": "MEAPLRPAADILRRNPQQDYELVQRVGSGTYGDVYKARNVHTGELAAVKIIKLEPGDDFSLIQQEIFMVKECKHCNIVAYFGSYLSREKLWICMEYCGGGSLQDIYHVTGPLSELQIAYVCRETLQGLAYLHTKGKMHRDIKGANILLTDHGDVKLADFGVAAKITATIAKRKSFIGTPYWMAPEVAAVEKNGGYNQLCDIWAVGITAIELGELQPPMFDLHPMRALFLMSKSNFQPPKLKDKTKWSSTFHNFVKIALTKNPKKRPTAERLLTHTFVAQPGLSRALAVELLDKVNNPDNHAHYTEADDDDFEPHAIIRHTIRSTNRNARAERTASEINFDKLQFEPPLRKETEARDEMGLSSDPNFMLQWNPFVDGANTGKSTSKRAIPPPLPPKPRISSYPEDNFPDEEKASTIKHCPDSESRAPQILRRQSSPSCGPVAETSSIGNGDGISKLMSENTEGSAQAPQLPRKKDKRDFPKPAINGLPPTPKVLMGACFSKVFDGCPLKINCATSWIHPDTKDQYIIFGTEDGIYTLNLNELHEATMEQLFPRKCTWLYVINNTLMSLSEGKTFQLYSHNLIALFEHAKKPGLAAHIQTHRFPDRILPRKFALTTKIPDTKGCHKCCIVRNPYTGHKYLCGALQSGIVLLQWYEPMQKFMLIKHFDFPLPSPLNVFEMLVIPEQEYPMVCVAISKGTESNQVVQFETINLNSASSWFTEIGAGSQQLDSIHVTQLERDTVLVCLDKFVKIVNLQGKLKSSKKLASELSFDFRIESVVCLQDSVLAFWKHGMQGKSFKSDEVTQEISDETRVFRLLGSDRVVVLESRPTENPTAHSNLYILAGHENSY", "UniProt Q13043, sequence (whole entry, looked up)": "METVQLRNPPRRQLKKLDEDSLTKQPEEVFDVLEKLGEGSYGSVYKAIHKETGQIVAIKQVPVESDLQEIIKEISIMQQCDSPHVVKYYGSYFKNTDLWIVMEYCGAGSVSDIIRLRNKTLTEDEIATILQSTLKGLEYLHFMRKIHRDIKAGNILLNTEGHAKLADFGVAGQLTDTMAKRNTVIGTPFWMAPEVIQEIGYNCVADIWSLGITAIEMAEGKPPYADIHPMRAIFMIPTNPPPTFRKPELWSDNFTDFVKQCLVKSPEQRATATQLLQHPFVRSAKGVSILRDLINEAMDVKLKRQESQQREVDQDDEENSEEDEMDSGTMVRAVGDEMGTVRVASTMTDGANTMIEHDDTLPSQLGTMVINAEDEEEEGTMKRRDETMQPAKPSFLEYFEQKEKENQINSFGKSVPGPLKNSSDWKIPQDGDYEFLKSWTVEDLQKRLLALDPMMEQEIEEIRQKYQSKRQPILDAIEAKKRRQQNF"}
{"data": "Study 1", "Compound": "O=S(=O)(NCCNC/C=C/c1ccc(Br)cc1)c1cccc2cnccc12", "effect on": "enzyme activity", "action": "inhibitor", "tested at": "0.5 µM", "baseline": "control"}
{"target": "Serine/threonine-protein kinase PAK 3 (PAK3, Homo sapiens, UniProt O75914)", "remaining activity [%]": 103}
{"target": "G protein-coupled receptor kinase 4 (GRK4, Homo sapiens, UniProt P32298)", "remaining activity [%]": 95.8}
{"target": "MAP/microtubule affinity-regulating kinase 4 (MARK4, Homo sapiens, UniProt Q96L34)", "remaining activity [%]": 94.3}
{"target": "Serine/threonine-protein kinase MRCK beta (CDC42BPB, Homo sapiens, UniProt Q9Y5S2)", "remaining activity [%]": 99.5}
{"target": "Cyclin-dependent kinase 9, with cyclin K (CDK9, Homo sapiens, UniProt P50750)", "remaining activity [%]": 85.5}
{"target": "Mitogen-activated protein kinase 1 (MAPK1, Homo sapiens, UniProt P28482)", "remaining activity [%]": 108}
{"target": "cGMP-dependent protein kinase 2 (PRKG2, Homo sapiens, UniProt Q13237)", "remaining activity [%]": 56.9}
{"target": "Discoidin domain-containing receptor 2 (DDR2, Homo sapiens, UniProt Q16832)", "remaining activity [%]": 93.8}
{"target": "Calcium/calmodulin-dependent protein kinase type 1B (PNCK, Homo sapiens, UniProt Q6P2M8)", "remaining activity [%]": 100}
{"target": "Serine/threonine-protein kinase MARK2 (MARK2, Homo sapiens, UniProt Q7KZI7)", "remaining activity [%]": 89.3}
{"target": "Serine/threonine-protein kinase PLK3 (PLK3, Homo sapiens, UniProt Q9H4B4)", "remaining activity [%]": 98.2}
{"target": "Mitogen-activated protein kinase 14 (MAPK14, Homo sapiens, UniProt Q16539)", "remaining activity [%]": 105}
{"data": "Study 2", "Compound": "CCc1ccccc1C(=O)Nc1n[nH]c2c(C)c(F)c(C3C(C#N)=C(C)N(C)C(C)=C3C#N)cc12", "effect on": "cell-free assay", "method": "competition with immobilised ligand", "tested at": "1 µM"}
{"target": "SRSF protein kinase 2 (SRPK2, Homo sapiens, UniProt P78362)", "remaining binding": "100%"}
{"target": "Mast/stem cell growth factor receptor Kit (KIT, Homo sapiens, UniProt P10721, A829P)", "remaining binding": "100%"}
{"target": "Mitogen-activated protein kinase kinase kinase kinase 5 (MAP4K5, Homo sapiens, UniProt Q9Y4K4)", "remaining binding": "100%"}
{"target": "TRAF2 and NCK-interacting protein kinase (TNIK, Homo sapiens, UniProt Q9UKE5)", "remaining binding": "78%"}
{"target": "Serine/threonine-protein kinase 4 (STK4, Homo sapiens, UniProt Q13043)", "remaining binding": "98%"}
{"target": "Receptor tyrosine-protein kinase erbB-3 (ERBB3, Homo sapiens, UniProt P21860)", "remaining binding": "91%"}
{"target": "Epithelial discoidin domain-containing receptor 1 (DDR1, Homo sapiens, UniProt Q08345)", "remaining binding": "48%"}
{"target": "Dual specificity tyrosine-phosphorylation-regulated kinase 1A (DYRK1A, Homo sapiens, UniProt Q13627)", "remaining binding": "100%"}
{"target": "Serine/threonine-protein kinase Nek10 (NEK10, Homo sapiens, UniProt Q6ZWH5)", "remaining binding": "100%"}
{"data": "Further values, each from its own experiment"}
{"SMILES": "COc1ccc2cc([C@H](C)C(=O)O)ccc2c1", "tested on": "Plasmodium berghei", "test system": "Huh-7", "setting": "10 µM, 24 h, liver stage", "measurement": "inhibition", "value": "91.6%"}
{"SMILES": "CC(C)n1cnc(-c2ccc(F)cc2)c1-c1ncc(C(=O)Nc2ccc(N3CCN(C)CC3)cc2)[nH]1", "test system": "human, idiopathic pulmonary fibrosis", "setting": "30 mg twice daily, trial, without standard of care", "measurement": "serious treatment-related AEs", "value": "0%"}
{"SMILES": "CNCCC[C@]12CC[C@H](c3ccccc31)c1ccccc12", "tested on": "Plasmodium berghei", "test system": "Huh-7", "setting": "10 µM, 24 h, liver stage", "measurement": "inhibition", "value": "91.7%"}
{"note": "Excerpt of the above (study 1):"}
{"target": "MAP/microtubule affinity-regulating kinase 4 (MARK4, Homo sapiens, UniProt Q96L34)", "remaining activity [%]": 94.3}
{"target": "Serine/threonine-protein kinase MRCK beta (CDC42BPB, Homo sapiens, UniProt Q9Y5S2)", "remaining activity [%]": 99.5}
{"target": "Cyclin-dependent kinase 9, with cyclin K (CDK9, Homo sapiens, UniProt P50750)", "remaining activity [%]": 85.5}
